Assay results from different studies.
Numbered parts are unrelated; each lists some results of a single study.

Study 1
Organism: Saccharomyces cerevisiae
Read-out: binding
Technique: competitive growth deep sequencing
Molecule type: peptide
Strain: cyclin D3-Cln2 fusion strain
Tested at: concentration not given
Notes: peptide tiling library
Direction: direction not given
Molecule	growth enrichment score
PPTFLSTGEIHAFLSS	0.334
ELGMEHCEKFEISETS	0.347
SPREGHMMDALYAQVK	0.778
ATNSSHTDAHEILVSD	-0.232
YLYLLLTQSLWCRV	0.103
VSRNLRSSLKSSLHTL	-1.3
GPVKLEFDVSDGAT	-0.0508
NLEPNAEFDKRTEFIT	0.686
NRLLKLFTRCLTPLVP	-1.05
AGSAKRRLFGEDPPKE	0.00694
KVRRNLFNQELLSP	-0.911

Study 2
Target: RING finger protein unkempt homolog, zinc fingers 1-6, GST-SBP tag (UNK, Homo sapiens, UniProt Q9C0B0, residues 30-357)
Technique: RNA Bind-n-Seq
Molecule type: RNA
Matrix: in vitro
Tested at: not given
Notes: RNA with constant flanks, human-mouse chimeric sites, ends assumed
Baseline: input RNA pool
Direction: higher = stronger binding
Constant ends, left off below: GGGAGUUCUACAGUCCGACGAUC … CAACAGAGGAUUGAGCAUCA
Construct (chain): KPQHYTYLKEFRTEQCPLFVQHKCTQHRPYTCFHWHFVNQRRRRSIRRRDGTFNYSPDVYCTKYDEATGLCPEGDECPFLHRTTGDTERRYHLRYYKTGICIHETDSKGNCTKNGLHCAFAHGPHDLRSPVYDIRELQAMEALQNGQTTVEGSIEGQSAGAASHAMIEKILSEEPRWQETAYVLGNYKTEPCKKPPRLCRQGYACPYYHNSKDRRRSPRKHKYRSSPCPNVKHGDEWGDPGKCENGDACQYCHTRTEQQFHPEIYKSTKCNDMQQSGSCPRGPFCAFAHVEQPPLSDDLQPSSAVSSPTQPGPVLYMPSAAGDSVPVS
Sequence	bound/input enrichment [ratio]
CGGAGCCCUCCUCUCCCACAGGCCCAAGAUAUAACCCACCAGUGCCUUCUGUCUGCUUGUCAGCUCUGUCAAUCACGCCUGUCCUCUCACGCCCACACUCCCCAGCCAAAGUGGGGAGGG	0.456
GGUGGGGGGUUGUCAUUCGUUUGAGCUGCUGAUUUUCAUGAGUCGCCUUCAAAACUCUCGUGUAGGGUUGACACUGUGGGGGGGUGGGGGAUCCAGCUUAUUCUUUUAUUUUCAAGUCCA	0.464
UUGCCUGAGAACGAGGAUGAGCUGGAGAGCACCAACAGGCGCUACACCAAGAGGGACUGCAGCACUUUCCUCAGAACUAGUGAGACGGGCAUUGUGGACCAGGUCAUGGUCACUCUCAAC	0.0764
AACUUCGUACAUAGAUUUCCCUUUGUAGCUGUUUCAAUUGGCUUCCUUGUGAAUAAAGAGAUGGAGUUUGGAAUUGUGUACAGUUGUGUGGAAGAUAAGAUGUACACCGGCAGGAAAGGG	1.18
AAGGUGAUGACUAUGUUUGUCCAACGACAGGUAUUUUCGGAGAGCAAGGAUGAGAUUGCGUUAGUCCUCUAUGGCACAGAUGGCACUGAUAAUGCCCUUGCUGGCAAGGACCAGUAUCAG	0.108
UCCCAAAUCCAGCAGCUAGAAGGAGCCUUGAGACAAACACUCCACACGCAGGGAGGGCGAUAACAUUGUACAUUGGUUUACAUUUUUUCCCCCUGUGGAUUUUUCUAUCCUAGUGCUUGC	0.261
AGUUCCAAACCACCAUCAGAAAUGAAGAUGAGAUUACCCAGACGAGCCAAAACAGCUGCGCUACAGAAAAGUAAACUUUAACCUUGCGAGUUCCUUAAUGAAGAUACAAGUUAAGAGAGC	0.227
AACAGAUUGUCUUUAAGCAUUCCAAGCAAUGCUUGGGGGGUGAUCAUUGUUGCCCAUGUGCCUUCUGACUGAGCUUUAAUGCUGUUCCAUGUUACAUCUUUCCUUCAUUGCAUAUUUGUU	0.148
GCUCCUCCCCGCUCUGCAGCCUGGGGACACUGGGCUGCAUUUUUUUUCCAGCUUUCUUUUAAAACUCUCAGUGUAACUUCUUUUUCUGACAUUUCAUUUUUUUUAAAUAGUGUAUUUUUU	6.9
UCAACAGACAACAUCAAAUACCAGCCUAAGGGGGGUCAGGUACAAAUUGUUACCAAGAAGAUAGACUUAAGCCAUGUGACAUCCAAAUGUGGCUCUCUGAAGAACAUCCGCCACAGGCCA	0.392
AGAGAAAUGAGAAAGAAUCUUACACAAGAAGAGAUGCAAAGAAUGUCUACUAGAGUCCUUUUGGCGACUCUUUCCAUCCCUAUUACUCCUGAGCGAACUGAUAUUGCUCGACUUUUGGAU	0.124

Study 3
Target: Histone acetyltransferase KAT6A, winged helix 2, GST fusion (KAT6A, Homo sapiens, UniProt Q92794, residues 85-181)
Technique: protein binding microarray
Molecule type: double-stranded DNA, one strand shown
Matrix: in vitro
Tested at: not given
Notes: 8-mer, flanks averaged, mean of 2 arrays, mostly near background
Baseline: not given
Direction: higher = stronger binding
Residues (chain): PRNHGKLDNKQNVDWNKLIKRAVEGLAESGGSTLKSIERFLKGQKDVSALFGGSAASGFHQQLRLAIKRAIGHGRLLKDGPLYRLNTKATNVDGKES
Sequence	E-score
GCTAAGGA	-0.0226
GGGTAATA	0.147
ATCGCAGG	0.106
ACTATGGG	-0.144
GGGAACAA	0.034
ATTCTTTC	0.0929
CTCCTACA	-0.169
AGTTTGAC	0.0303
GTACGTAA	-0.355
AATATGTC	-0.0331
CTGAATCC	0.0493
CTGTGCGC	0.0698
CCTTCGCC	0.0196
AAAGCTTC	-0.115
CTAAAGCA	0.192
GTTAGAGA	-0.0842
AGGTTCAT	-0.0571
CCGCAGCC	0.133
CAATTAAG	0.0576
CCCCTAGA	-0.154
ACCGAAGT	-0.15
CCGTGTAG	-0.0785
GAGTATAA	0.0491
CACTGGAA	0.0147
GCTATTCC	-0.0304

Study 4
Target: Sal-like protein 4, full length isoform B (SALL4, Homo sapiens, UniProt Q9UJQ4-2, residues 1-616)
Technique: universal PBM
Molecule type: double-stranded DNA, one strand shown
Matrix: in vitro
Tested at: not given
Notes: 8-mer, flanks averaged, mean of replicates
Direction: higher = stronger binding
Sequence	E-score
CAGTATCA	0.0199
ACCATAGA	0.0981
AATAGTGT	0.246
CAGTAGAG	-0.142
GTGCGACA	-0.193
CTTAGATC	-0.0523
CACGGAGC	-0.106
TAAGGCGA	0.047
CGTGCTGA	0.0103
CGTTAACG	-0.0795
AATCCCAT	0.162
ACAATGGT	0.104
CAGTATGC	-0.022
CAGGACTC	-0.306
CATCCCCA	-0.168
CCCGTGTA	-0.0936
AATACTAG	0.208
CCGCCAGG	-0.375
ACCTTAGA	0.0191
CGACATCC	-0.182
CATGGGAG	-0.11
AGATTTCA	0.192
CAGCCCAA	-0.107
CCATATCG	0.151
ACCCCACT	-0.17

Study 5
Target: Hepatocyte nuclear factor 3-alpha (Foxa1, Mus musculus, UniProt P35582, residues 1-468, full length assumed)
Technique: EMSA with sequencing
Molecule type: double-stranded DNA, one strand shown
Matrix: in vitro
Tested at: 10 and 20 nM
Notes: whole designed probe, mean of two concentrations, ends assumed
Baseline: negative control set to 0
Direction: higher = stronger binding
Constant ends, left off below: GTGAGCGGTGCCCATTGATGGGGAAC … TTTCACTGGGATCGTGGGGAC
Target sequence (chain): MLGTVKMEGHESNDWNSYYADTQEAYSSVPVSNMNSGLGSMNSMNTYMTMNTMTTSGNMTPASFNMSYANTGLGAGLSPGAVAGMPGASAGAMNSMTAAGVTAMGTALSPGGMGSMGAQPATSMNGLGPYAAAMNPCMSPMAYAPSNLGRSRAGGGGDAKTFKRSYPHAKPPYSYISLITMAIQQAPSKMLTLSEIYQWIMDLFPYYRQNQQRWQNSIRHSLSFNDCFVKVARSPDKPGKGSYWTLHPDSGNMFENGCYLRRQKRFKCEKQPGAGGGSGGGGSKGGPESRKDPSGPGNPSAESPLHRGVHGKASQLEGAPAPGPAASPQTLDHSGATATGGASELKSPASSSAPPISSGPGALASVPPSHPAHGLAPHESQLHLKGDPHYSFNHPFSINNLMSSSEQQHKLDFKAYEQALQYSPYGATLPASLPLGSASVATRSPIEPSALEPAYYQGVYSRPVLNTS
Sequence	normalised bound fraction [ratio]
AAACTTCCTGTCCCATCACCCAGCATCAACACCATTAACCAGTCATGACTAATCCTGCCCCATCCACGTCCCCAGCCTTTCCCCGACTTCTCATATTTGCTTTGAAACAAATCCCAGATATAATATCATTTCATTGTGAGGTTGTTGTGAGGATTAACTAAAAGCATGCCTATCATATGGGTCTCTAAAAGAT	0.256
TAGCAGGTCACTGCCAGTCACGAGGGCAGAGAGACCCAAAGGATCAGAGAACAGCTCTGAGCAGGTCATGCGCAGTGCCAGAAGGAAAGCCTTTGTTTACAGAGGGAAAGATCCTGCACCTTGAAGTGAGGCATTAAAGAGTAGAGGGGCTTTGCACCTGCATCCTAAGCCTCTTGGTTCACCACTAAGCCGC	0.403
TCAACTGACTCACCCAGAGCAACTTCTAGTCCTGCAAGCTATGTTCATGGAGTGTCCTATGCAGGTGCATCCTTTTTTATCTTTTATACTGCAAGATTACTCTGTGTATTTTCTGTGTTTAGACTCATAAATACTTAACATTTTGTTACAATTTCCTACAGTGTTCAGTACAACAACATGTTGTATGGTTTAT	0.0238
GATGTTTTTGTTGTTGTTAATCTGGAGCTAAGGATGGTTGCATTGTGTTTGCATTCTAGATAACAAAGCTGGCAGTCGCAGTGAAGGAGGGTCATGTTTGCACAGCAGTGATTCAGAGCTCTGCCAGGACAGCTGCCAGTGCAGTTTATCTCCCAGTCCGATCAGGCCTTGGCGCAGGGAGGGAAGGTGGCCC	0.38
AGAAATTAGGATTTGAAGATGGAGGGGAAAGTGGGTGGGGAAAGAGTAGAGTAGATAGGGCTAAATAAATAAAACTACCATGTATATGAACAGTGTAATCTAGGACTTAAGAACTACTAAGTCCTTGTCTTGTATTAGTAAATACTAAATTATAAATAAAACACACTATAAGAATGTTGTTTTATATATCAAT	0.425
CTTCCACCCGCTCCTTCTCCCTGGATTAAAACACCACGAATTTTCTGCTCTTTGCTTTTCTTGAATAAGTTACCAAAAAAGAGCAGAACTAAGTCAACACCAAACTGCCCTTTGGATAAACAAGATGGAGCAGATTTATTTACCTTGGAACATGATTTTGAATTCAAGCCATGAAGTACACTGGAGGAATGCC	0.355
ACATTTGGGTCATTCCACCCTTTGACTAATGTGATCAGTGCTGCTCTGAACATTCGTGTATGAGTATTTGAGGATCGTTTTCACTTCTCTTGGGTAAACATCTAGGAGTGAAATTCCAGAGTCATAGGGCAGTTTTATGTGTAACTACTTTTTGAGGAGTGCAGTGGCATAATCTTGCCTCACTGAAACCTCC	0.265
CACTCGGCTCCCCAGAGGTCAGCGCACCCCAAGCCCAGAGGCCGGCTGGCCTCGGCACGTCTCACTCCACTATCTTCCCTCCTCCCTGAACTCTGTTTACACAAGGCTGGTCTTGGCTCTGAGGCTGCTAGATTTTAAATGCAATCTCACTGGTGACTCACTGGTGCATCGTCATTTGGCTTTGCCTGGAATT	0.484

Excerpt of the above (study 5):
Sequence	normalised bound fraction [ratio]
GATGTTTTTGTTGTTGTTAATCTGGAGCTAAGGATGGTTGCATTGTGTTTGCATTCTAGATAACAAAGCTGGCAGTCGCAGTGAAGGAGGGTCATGTTTGCACAGCAGTGATTCAGAGCTCTGCCAGGACAGCTGCCAGTGCAGTTTATCTCCCAGTCCGATCAGGCCTTGGCGCAGGGAGGGAAGGTGGCCC	0.38
AGAAATTAGGATTTGAAGATGGAGGGGAAAGTGGGTGGGGAAAGAGTAGAGTAGATAGGGCTAAATAAATAAAACTACCATGTATATGAACAGTGTAATCTAGGACTTAAGAACTACTAAGTCCTTGTCTTGTATTAGTAAATACTAAATTATAAATAAAACACACTATAAGAATGTTGTTTTATATATCAAT	0.425
CTTCCACCCGCTCCTTCTCCCTGGATTAAAACACCACGAATTTTCTGCTCTTTGCTTTTCTTGAATAAGTTACCAAAAAAGAGCAGAACTAAGTCAACACCAAACTGCCCTTTGGATAAACAAGATGGAGCAGATTTATTTACCTTGGAACATGATTTTGAATTCAAGCCATGAAGTACACTGGAGGAATGCC	0.355
ACATTTGGGTCATTCCACCCTTTGACTAATGTGATCAGTGCTGCTCTGAACATTCGTGTATGAGTATTTGAGGATCGTTTTCACTTCTCTTGGGTAAACATCTAGGAGTGAAATTCCAGAGTCATAGGGCAGTTTTATGTGTAACTACTTTTTGAGGAGTGCAGTGGCATAATCTTGCCTCACTGAAACCTCC	0.265
CACTCGGCTCCCCAGAGGTCAGCGCACCCCAAGCCCAGAGGCCGGCTGGCCTCGGCACGTCTCACTCCACTATCTTCCCTCCTCCCTGAACTCTGTTTACACAAGGCTGGTCTTGGCTCTGAGGCTGCTAGATTTTAAATGCAATCTCACTGGTGACTCACTGGTGCATCGTCATTTGGCTTTGCCTGGAATT	0.484
